Experimental data collected from several papers.
Every numbered part comes from another study and shows a few of its results, in no order. Substitutions count along the parent as printed.

Study 1 — target: CCNB2, cyclin fold, Cln2 fusion (human); technique: yeast growth competition, sequencing; sample: yeast; notes: weak parent motif; reference: not given; reading: higher = stronger binding; measurement: normalised enrichment score
Parent: RB1 docking peptide (human); PKPLKKLRFDIEG
I11E: 0.366
G13H: 0.728
E12W: 0.567
E12M: 0.495
K6C: 0.36
R8K: 0.192
L7N: -0.167
L7I: 0.702
L4G: 0.683
P1N: 0.0423
G13N: 0.0804
F9V: 0.118
I11Q: -0.248
E12Q: 0.134
K5V: -0.178
E12P: 0.14
E12G: 0.884
K5D: -0.0558

Study 2 — technique: protein-binding microarray; molecule type: double-stranded DNA, one strand shown; sample: in vitro; tested at: 940 nM top; notes: 60-bp whole probe; added: salmon DNA 0.4 mg/ml; reference: random background probes; reading: higher = stronger binding; measurement: fitted relative affinity; shared flanks, not repeated: GCCTAGCAC … GTCTTGATTCGCTTGACGCTGCTG
Target: Interferon regulatory factor 5, full length, phosphomimetic (IRF5, Homo sapiens, UniProt Q13568-2, residues 1-514, S451D/S453D/S456D/S462D)
CTTGCTTCCTAATTCTCTTTGTGCTAG: 1.37 z-score
GACGGACTGGACTTTCGGGTCGTGCTA: 1.22 z-score
TTAGGTATCTTTATCCTTTAGTGCTAG: 0.813 z-score
TTAGAACTGAGTCTCGCTTAGTGCTAG: 1.14 z-score
TTAGTTTTCGGTTTCGGTTAGTGCTAG: 11.4 z-score
GTGTACATCTCTCTTAAATAGTGCTAG: 0.664 z-score
TTAGGTAGCGACTTTCGGTTAGTGCTA: 2.83 z-score
TTAGGTTCCGCTTTCGGTTAGTGCTAG: 4.56 z-score
TTAGGTTTCGGGTCCGGTTAGTGCTAG: 10.3 z-score
GACGGTCTAGGACTGGGGACGTGCTAG: -0.282 z-score
AACGATTTCAGTCTCGAGACGTGCTAG: 2.07 z-score
CAGCCTCTGCATTCCCTCAGGTGCTAG: 0.201 z-score
TTAGAATTCAGTTCCGATTAGTGCTAG: 1.3 z-score
GACGGACTGGGACTGGGGAAGTGCTAG: -0.592 z-score
GACGGTCTTGGTATCGGGACGTGCTAG: 2.39 z-score
TTAGGTATCGTCTATCGGTTAGTGCTA: 4.32 z-score
TCCCTTATAAATAGCACAGGGTGCTAG: 0.59 z-score
GACGGACTGGACACTGGGGTCGTGCTA: -0.61 z-score
GACCGTTTCGGGTTTCGGGACGTGCTA: 5.01 z-score
TCACGTCTGGGTGTTTTACTGTGCTAG: 0.319 z-score
TCATTCCTCTTTCTCTGACTGTGCTAG: 1.54 z-score
GACGGTATCCAACTGCTGACGTGCTAG: -0.425 z-score
TCAACTCTGTCCCTCTGACTGTGCTAG: 0.44 z-score
TCACATGTCTGTGTCACACTGTGCTAG: 0.192 z-score
TCAGACATCTTCATCAAACTGTGCTAG: 0.594 z-score

Study 3 — technique: DHFR PCA, deep sequencing; sample: yeast; added: (+)-ABA 1.4 µM; reference: wild-type fitted maximum; reading: higher = stronger binding; measurement: relative binding score
Target: ABI1, truncated, D143A, DHFR fusion (Arabidopsis thaliana)
Notes: methotrexate growth selection, single substitutions
Parent: PYL1, truncated, DHFR fusion (Arabidopsis thaliana); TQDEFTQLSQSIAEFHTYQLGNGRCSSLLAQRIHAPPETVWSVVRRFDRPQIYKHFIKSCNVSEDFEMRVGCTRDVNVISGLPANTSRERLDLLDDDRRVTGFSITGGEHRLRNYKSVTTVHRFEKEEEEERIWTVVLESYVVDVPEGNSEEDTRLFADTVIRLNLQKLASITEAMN; partner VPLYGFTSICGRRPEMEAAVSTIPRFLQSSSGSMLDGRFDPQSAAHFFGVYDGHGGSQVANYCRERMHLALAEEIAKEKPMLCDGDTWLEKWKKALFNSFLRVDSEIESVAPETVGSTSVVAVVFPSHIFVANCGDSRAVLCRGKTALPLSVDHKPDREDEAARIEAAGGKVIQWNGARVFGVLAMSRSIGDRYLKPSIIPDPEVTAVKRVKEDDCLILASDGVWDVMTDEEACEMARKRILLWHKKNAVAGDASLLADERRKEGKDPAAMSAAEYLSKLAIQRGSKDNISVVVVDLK
H110V: 4.5%
E4D: 53.9%
N77W: 30.1%
S171F: 11.6%
V118S: 5.72%
F15C: 16.2%
M68P: 23.4%
F5A: 38.9%
L94Y: 23.5%
I79M: 20.8%
T101V: 49.3%
A170P: 4.5%
G102C: 3.52%
R90I: 0.099%
R111A: -4.95%
E151P: 55.6%
I172Q: -12.7%
F5G: 23.4%

Study 4 — technique: protein-binding microarray; molecule type: double-stranded DNA, one strand shown; sample: in vitro; tested at: not given; reading: higher = stronger binding; measurement: E-score
Target: Protein max, full length (MAX, Homo sapiens, UniProt P61244-2, residues 1-151)
Notes: k-mer, scored over probes, only values ≥0.25
ACACATGC: 0.462
GGTGGCCA: 0.278
CATGGCAA: 0.36
CATGGGCC: 0.283
CCACCCCC: 0.281
CATGGTTC: 0.317
GTGTGACA: 0.309
AAACATGA: 0.278
CATGTGCG: 0.486
AACATGTG: 0.486
CGCACGAG: 0.43
ATGTGGCC: 0.357
GCGTGCCA: 0.391
CGTGCGGC: 0.378

Study 5 — target: UBE2H UBC core domain (UniProt P62256); technique: yeast two-hybrid; sample: yeast; notes: mostly zero background; reference: not given; reading: higher = stronger interaction; measurement: lacZ reporter activity
Chain of UniProt P62256 (whole entry, looked up): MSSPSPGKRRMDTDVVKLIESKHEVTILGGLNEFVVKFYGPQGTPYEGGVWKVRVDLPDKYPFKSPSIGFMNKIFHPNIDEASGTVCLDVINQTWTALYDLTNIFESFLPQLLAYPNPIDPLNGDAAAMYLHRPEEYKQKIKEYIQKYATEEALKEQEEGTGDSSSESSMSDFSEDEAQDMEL
B1: ZNF598 RING domain (UniProt Q86UK7); chain AAAPERGGGSCVLCCGDLEATALGRCDHPVCYRCSTKMRVLCEQRYCAVCREELRQVVFGK
B2: TRIM63 RING domain (UniProt Q969Q1); chain PMENLEKQLICPICLEMFTKPVVILPCQHNLCRKCANDIFQAANPYWTSRGSSVSMSGGRFRCPTCRHEVIMDRHGV
B3: RNF170 RING domain (UniProt Q96K19); chain TRQQFYTDMYCPICLHQASFPVETNCGHLFCGACIIAYWRYGSWLGAISCPICRQTVTLLLTVF
B4: IRF2BPL RING domain (UniProt Q9H1B7); chain SPMANSGPLCCTICHERLEDTHFVQCPSVPSHKFCFPCSRESIKAQGATGEVYCPSGEKCPLVGSNVP
B5: CUL9 RING domain (UniProt Q8IWT3); chain AQAVPVRPDHCPVCVSPLGCDDDLPSLCCMHYCCKSCWNEYLTTRIEQNLVLNCTCPIADCPAQPTGAFIR
B6: ARK2C RING domain (UniProt Q6ZSG1); chain EGEESDTDEKCTICLSMLEDGEDVRRLPCMHLFHQLCVDQWLAMSKKCPICRVDIETQLGAD
B7: RC3H2 RING domain (UniProt Q9HBD1); chain QAAQWTEFLSCPICYNEFDENVHKPISLGCSHTVCKTCLNKLHRKACPFDQTAINTDIDVL
B8: TRIM69 RING domain (UniProt Q86WT6); chain VIQDITMELHCPLCNDWFRDPLMLSCGHNFCEACIQDFWRLQAKETFCPECKMLCQYNNCTF
B1 (ZNF598 RING domain): 0
RLTMMWEEVTCPICLDPFVEPVSIECGHSFCQECISQVGKGGGSVCPVCRQRFLLKNLRP (TRIM21 RING domain (UniProt P19474)): 0
B2 (TRIM63 RING domain): 0
DDENSDNSNECVVCLSDLRDTLILPCRHLCLCTSCADTLRYQANNCPICRLPFRALLQIR (MGRN1 RING domain (UniProt O60291)): 0
B3 (RNF170 RING domain): 0
KTLSRFGIQPCSICLGDAKDPVCLPCDHVHCLRCLRAWFASEQMICPYCLTALPDEFSPA (RNF213 RING domain (UniProt Q63HN8)): 0
B4 (IRF2BPL RING domain): 0
B5 (CUL9 RING domain): 0
B6 (ARK2C RING domain): 0
QLRRLQEERTCKVCMDKEVSIVFIPCGHLVVCKDCAPSLRKCPICRSTIKGTVRTF (BIRC3 RING domain (UniProt Q13489)): 0
B7 (RC3H2 RING domain): 0
B8 (TRIM69 RING domain): 0

Repeated from above (study 1):
K5D: -0.0558
E12P: 0.14
G13N: 0.0804
F9V: 0.118
I11E: 0.366
L4G: 0.683
G13H: 0.728
K6C: 0.36
